Measured values gathered from unrelated publications.
A part holds a random share of what one study measured.

Study 1
Target: Protein C-ets-1 (ETS1, Homo sapiens, UniProt P14921, residues 1-441, K379A, full length assumed)
Technique: protein-binding microarray
Form: double-stranded DNA, one strand shown
Medium: in vitro
Tested at: not given
Setting: k-mer, scored over probes, only values ≥0.25
Direction: higher = stronger binding
Target sequence (chain): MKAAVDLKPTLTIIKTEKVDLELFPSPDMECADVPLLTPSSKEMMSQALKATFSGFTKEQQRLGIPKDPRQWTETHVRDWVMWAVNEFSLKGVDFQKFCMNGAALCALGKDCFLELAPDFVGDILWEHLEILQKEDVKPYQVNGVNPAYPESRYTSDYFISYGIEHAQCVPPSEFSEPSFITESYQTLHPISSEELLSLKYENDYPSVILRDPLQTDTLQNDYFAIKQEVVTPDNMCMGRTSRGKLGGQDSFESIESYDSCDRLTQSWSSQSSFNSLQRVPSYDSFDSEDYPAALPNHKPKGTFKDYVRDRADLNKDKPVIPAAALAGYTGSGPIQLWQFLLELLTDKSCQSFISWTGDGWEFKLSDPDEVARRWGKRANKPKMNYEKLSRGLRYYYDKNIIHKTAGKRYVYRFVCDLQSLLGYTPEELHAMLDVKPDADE
`TAACGTTA` gave an E-score of 0.281.
The E-score of `TACCGGCA` is reported as 0.412.
`ATTGCAAT` has an E-score of 0.32.
`CGACAATA` has an E-score of 0.257.

Study 2
Target: Histone acetyltransferase KAT6A, both winged helices, GST fusion (KAT6A, Homo sapiens, UniProt Q92794, residues 1-181)
Technique: protein binding microarray
Form: double-stranded DNA, one strand shown
Medium: in vitro
Tested at: not given
Setting: 8-mer, flanks averaged, mean of 2 arrays, mostly near background
Reference: not given
Direction: higher = stronger binding
Target sequence (chain): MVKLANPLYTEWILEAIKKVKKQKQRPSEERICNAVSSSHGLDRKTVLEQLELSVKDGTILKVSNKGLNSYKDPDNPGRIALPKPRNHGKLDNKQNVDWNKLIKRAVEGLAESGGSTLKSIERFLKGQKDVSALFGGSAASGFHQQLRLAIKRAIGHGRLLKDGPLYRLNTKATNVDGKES
The E-score of `AGATGGTC` is reported as -0.163.
With `CAAGTGCA` the E-score was -0.183.
`CCCTTGTC` has an E-score of -0.165.
With `CGTTACCA` the E-score was -0.159.
`AGAGGGAC` gave an E-score of -0.169.
With `TCCCTAGA` the E-score was -0.172.

Study 3
Target: Fragile X messenger ribonucleoprotein 1, C-terminal low-complexity region (Fmr1, Mus musculus, UniProt P35922)
Technique: RNA Bind-n-Seq
Form: RNA
Medium: in vitro
Tested at: 200 nM
Setting: whole 134-nt RNA, ends assumed
With: 150 mM LiCl
Reference: input library
Direction: higher = stronger binding
Each molecule: 7-deaza-guanosine replaces G
The log2 enrichment of `GGGAGUUCUACAGUCCGACGAUCUUCAGUUAUUCAAGCGGAGAAAUGUUGCUACAGCAGAAGAAGAAACAGAAGAAGAAGUUAUGUCAGAUGGAGGCUUUCAUGAGGCUCAGAUGGAAUUCUCGGGUGUCAAGG` is reported as -2.63.
`GGGAGUUCUACAGUCCGACGAUCUUUCUCUCACCAGGUACCAGGUCAUCAGUACACCAUCUGAUAUUUUCAUGGUGAUGGAAUAUGUCUCAGGAGGAGAGCUAUUUGAUUAUAUGGAAUUCUCGGGUGUCAAGG` gave a log2 enrichment of 1.28.
`GGGAGUUCUACAGUCCGACGAUCUUCCUCAAGUCCUGUGCUACACAUCGUAUGUACCGAAUCGUGUGUGUGUGUAAAGUAUUAUGUUACGCCGUUCGGAUCUGCACUUCCAGCUGGAAUUCUCGGGUGUCAAGG` has a log2 enrichment of 0.436.
`GGGAGUUCUACAGUCCGACGAUCAGUCCUGUGCUACACAUCGUAUGUACCGAAUCAAAUUUAAAUUUAAAUUUUUUUAAAAAAGUAUUAUGUUACGCCGUUCGGAUCUGCACUUGGAAUUCUCGGGUGUCAAGG` has a log2 enrichment of -3.51.

Mixed results
The fold induction of `PhoQ, residues 284 288 289 292 302 303 SSCCRF` is reported as 13.6 (PhoP, residues 12 14 15 18 19 SQCLL (Escherichia coli, UniProt P23836); Sort-seq, measured: YFP reporter; E. coli; PhoQ-PhoP variant library, with: 10 µM Mg2+; reference: high Mg2+ state, higher = stronger signaling).
